Assay results of several laboratories.
A part holds a random share of what one study measured.
Chain of UniProt Q99558 (whole entry, looked up): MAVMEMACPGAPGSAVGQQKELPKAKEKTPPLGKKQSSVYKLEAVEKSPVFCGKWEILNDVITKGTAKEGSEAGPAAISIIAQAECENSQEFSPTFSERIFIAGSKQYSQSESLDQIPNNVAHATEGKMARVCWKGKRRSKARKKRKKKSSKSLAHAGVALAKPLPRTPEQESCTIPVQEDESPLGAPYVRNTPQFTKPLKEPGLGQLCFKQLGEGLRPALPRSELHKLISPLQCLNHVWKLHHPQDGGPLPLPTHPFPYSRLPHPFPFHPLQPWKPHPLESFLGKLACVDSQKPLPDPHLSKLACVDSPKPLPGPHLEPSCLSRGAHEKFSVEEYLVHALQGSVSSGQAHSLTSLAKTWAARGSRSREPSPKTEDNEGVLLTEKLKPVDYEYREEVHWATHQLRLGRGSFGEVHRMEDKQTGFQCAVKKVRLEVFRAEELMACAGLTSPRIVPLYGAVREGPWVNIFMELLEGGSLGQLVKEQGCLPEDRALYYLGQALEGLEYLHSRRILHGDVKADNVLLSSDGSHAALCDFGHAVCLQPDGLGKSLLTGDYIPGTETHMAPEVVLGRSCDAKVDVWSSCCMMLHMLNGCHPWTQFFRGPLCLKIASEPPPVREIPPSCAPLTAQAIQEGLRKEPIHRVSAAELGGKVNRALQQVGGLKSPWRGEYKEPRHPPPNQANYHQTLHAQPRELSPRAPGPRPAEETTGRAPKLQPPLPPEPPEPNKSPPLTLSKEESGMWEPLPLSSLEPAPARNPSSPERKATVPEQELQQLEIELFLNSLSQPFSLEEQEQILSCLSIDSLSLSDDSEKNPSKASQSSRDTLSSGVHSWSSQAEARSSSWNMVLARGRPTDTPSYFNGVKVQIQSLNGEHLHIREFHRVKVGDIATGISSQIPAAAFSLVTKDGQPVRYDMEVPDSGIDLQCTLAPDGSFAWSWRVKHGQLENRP
Chain of UniProt Q5VT25 (whole entry, looked up): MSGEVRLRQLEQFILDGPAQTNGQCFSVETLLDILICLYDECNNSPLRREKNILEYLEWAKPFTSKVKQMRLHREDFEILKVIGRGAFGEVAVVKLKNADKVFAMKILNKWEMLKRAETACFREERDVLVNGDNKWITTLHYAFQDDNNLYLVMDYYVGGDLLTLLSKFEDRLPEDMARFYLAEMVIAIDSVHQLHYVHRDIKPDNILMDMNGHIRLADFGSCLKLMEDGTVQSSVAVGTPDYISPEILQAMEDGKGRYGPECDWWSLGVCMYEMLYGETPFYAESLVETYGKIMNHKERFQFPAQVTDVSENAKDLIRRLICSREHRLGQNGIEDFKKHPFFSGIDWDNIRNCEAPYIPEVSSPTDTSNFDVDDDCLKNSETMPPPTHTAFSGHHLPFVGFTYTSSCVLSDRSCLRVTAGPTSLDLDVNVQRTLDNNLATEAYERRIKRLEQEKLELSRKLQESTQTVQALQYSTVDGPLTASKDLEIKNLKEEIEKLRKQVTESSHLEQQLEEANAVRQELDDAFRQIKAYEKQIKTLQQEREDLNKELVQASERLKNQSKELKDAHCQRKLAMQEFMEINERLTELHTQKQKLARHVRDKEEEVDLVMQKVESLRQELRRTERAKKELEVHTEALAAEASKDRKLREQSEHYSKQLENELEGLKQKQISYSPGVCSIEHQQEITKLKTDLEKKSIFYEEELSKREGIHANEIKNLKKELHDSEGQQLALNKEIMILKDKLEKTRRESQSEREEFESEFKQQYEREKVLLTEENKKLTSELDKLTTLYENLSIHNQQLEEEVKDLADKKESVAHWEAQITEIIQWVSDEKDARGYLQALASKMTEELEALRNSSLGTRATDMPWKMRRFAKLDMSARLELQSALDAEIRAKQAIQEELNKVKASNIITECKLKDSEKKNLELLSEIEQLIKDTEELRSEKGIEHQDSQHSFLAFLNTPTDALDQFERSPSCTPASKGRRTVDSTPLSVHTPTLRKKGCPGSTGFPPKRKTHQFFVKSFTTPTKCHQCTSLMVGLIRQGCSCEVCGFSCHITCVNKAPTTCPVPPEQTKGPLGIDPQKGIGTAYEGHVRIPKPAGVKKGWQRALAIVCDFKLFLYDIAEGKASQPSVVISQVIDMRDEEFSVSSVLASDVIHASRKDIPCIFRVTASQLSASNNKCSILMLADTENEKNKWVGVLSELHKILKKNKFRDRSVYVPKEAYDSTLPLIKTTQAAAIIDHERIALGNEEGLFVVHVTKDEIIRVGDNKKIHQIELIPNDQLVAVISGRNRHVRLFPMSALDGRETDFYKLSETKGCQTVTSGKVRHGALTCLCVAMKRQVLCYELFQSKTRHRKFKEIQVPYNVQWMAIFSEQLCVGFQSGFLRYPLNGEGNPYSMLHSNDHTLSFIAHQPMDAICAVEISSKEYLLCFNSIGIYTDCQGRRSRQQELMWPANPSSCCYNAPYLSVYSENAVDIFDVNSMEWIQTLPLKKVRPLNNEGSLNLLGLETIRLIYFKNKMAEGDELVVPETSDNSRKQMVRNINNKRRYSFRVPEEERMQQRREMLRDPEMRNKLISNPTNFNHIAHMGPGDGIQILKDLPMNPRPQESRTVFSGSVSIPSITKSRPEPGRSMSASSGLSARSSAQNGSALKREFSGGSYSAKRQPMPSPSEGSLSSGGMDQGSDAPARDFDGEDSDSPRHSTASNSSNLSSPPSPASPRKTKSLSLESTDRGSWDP
Chain of UniProt P0C1S8 (whole entry, looked up): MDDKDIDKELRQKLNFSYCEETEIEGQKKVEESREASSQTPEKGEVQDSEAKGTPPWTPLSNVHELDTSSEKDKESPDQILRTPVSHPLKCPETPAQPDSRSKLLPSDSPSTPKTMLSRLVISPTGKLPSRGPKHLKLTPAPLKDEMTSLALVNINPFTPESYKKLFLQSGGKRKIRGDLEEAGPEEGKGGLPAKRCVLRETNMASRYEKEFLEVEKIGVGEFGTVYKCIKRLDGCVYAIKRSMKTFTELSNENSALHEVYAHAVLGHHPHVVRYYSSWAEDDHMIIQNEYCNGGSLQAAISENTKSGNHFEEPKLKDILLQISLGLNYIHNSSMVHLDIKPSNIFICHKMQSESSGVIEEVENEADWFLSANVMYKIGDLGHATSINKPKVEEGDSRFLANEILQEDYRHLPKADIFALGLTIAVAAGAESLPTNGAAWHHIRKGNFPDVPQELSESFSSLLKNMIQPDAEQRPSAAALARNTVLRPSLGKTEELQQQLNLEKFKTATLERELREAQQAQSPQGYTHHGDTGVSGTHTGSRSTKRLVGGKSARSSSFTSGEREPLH

Series 1 — observed: enzyme activity; mode: inhibitor; tested at: 0.5 µM; baseline: control
Target: Focal adhesion kinase 1 (PTK2, Homo sapiens, UniProt Q05397)
Chain of UniProt Q05397 (whole entry, looked up): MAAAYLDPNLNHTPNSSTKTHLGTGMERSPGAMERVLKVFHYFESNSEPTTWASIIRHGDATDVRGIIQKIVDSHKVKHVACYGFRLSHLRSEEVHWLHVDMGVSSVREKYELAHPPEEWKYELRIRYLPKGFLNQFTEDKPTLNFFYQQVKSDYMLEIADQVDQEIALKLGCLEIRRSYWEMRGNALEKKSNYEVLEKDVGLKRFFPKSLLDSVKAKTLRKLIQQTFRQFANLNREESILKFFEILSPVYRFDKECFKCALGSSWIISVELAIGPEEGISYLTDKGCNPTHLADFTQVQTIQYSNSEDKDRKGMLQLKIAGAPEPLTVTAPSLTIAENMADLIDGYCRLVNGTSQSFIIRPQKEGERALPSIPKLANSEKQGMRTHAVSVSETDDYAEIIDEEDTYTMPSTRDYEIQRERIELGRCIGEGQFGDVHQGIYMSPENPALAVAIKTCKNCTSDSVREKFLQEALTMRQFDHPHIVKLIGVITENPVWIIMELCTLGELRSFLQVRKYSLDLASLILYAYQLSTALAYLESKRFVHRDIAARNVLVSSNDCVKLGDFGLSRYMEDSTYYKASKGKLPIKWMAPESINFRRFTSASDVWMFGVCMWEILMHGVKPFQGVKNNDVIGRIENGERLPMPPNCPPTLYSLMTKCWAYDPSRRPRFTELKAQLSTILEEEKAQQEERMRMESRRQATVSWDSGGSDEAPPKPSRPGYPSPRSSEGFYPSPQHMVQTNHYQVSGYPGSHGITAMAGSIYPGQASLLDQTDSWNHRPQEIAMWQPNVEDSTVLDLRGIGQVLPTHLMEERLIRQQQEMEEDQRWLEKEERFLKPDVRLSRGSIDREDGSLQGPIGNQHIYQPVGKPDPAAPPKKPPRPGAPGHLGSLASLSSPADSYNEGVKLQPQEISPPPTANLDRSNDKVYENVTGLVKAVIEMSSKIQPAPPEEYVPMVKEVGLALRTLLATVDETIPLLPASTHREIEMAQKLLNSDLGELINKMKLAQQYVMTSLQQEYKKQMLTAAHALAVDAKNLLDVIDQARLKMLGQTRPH
SMILES	remaining activity
O=C1Nc2ccccc2/C1=C\c1c(Cl)[nH]c2ccccc12	101%
O=C1Nc2ccc(Br)cc2/C1=C/c1cc2c([nH]1)CCCC2	81.9%
Cc1ccc(S(=O)(=O)/C=C/C#N)cc1	104%
c1ccc(-c2n[nH]c3c2oc2ccccc23)cc1	94.7%
O=C(c1cc2cc(O)ccc2[nH]1)c1cc2cc(O)ccc2[nH]1	109%
CCCNC(=O)Nc1ccc(Oc2ncnc3cc(OC)c(OC)cc23)cc1Cl	99.6%
CN(C)S(=O)(=O)c1ccc2c(c1)/C(=C/c1cc3c([nH]1)CCCC3)C(=O)N2	33.1%
CCCCc1c(-c2ccc(OC)cc2)[nH]c2nccnc12	81.7%
O=C1NC(=O)c2c1c1c3ccccc3[nH]c1n1cncc21	56.9%

Series 2 — observed: enzyme activity; tested at: 5 µM
Structure (SMILES): O=C(Nc1cnn(-c2csc(C(=O)NC3COC3)c2)c1)Nc1ccccc1Cl
target	test	scale	remaining activity [%]
RAF proto-oncogene serine/threonine-protein kinase (RAF1, Homo sapiens, UniProt P04049)		baseline: untreated control	82
Rhodopsin kinase GRK7 (GRK7, Homo sapiens, UniProt Q8WTQ7)		baseline: untreated control	94.9
Protein-tyrosine kinase 2-beta (PTK2B, Homo sapiens, UniProt Q14289)		baseline: untreated control	92.7
cAMP-dependent protein kinase catalytic subunit gamma (PRKACG, Homo sapiens, UniProt P22612)		baseline: untreated control	102
Leukocyte tyrosine kinase receptor (LTK, Homo sapiens, UniProt P29376)	inhibitor		99.2
Dual specificity mitogen-activated protein kinase kinase 7 (MAP2K7, Homo sapiens, UniProt O14733)		baseline: untreated control	109
cGMP-dependent protein kinase 1, isoform beta (PRKG1, Homo sapiens, UniProt Q13976)		baseline: untreated control	86.2

Series 3 — mode: agonist
Target: Beta-1 adrenergic receptor (ADRB1, Homo sapiens, UniProt P08588)
Chain of UniProt P08588 (whole entry, looked up): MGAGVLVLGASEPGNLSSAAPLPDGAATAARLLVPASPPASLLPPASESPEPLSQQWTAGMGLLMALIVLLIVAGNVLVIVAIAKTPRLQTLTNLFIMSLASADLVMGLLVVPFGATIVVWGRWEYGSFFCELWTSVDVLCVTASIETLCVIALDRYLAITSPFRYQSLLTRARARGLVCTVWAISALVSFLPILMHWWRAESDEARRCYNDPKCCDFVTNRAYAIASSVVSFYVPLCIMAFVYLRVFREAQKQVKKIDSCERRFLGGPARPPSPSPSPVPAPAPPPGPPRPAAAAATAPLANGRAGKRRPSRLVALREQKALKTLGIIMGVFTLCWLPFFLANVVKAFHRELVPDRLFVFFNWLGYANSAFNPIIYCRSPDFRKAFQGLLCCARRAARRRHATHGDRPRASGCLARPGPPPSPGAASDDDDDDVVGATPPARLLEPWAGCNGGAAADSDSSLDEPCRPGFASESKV
Structure (SMILES)	Emax [%]
CN(Cc1cnn(C)c1)Cc1ccccc1OCC(O)CN1CCCCC1 (stereo not shown)	96.7
COc1ccc(C(O)Cn2ccn3nc(-c4ccc(C(C)C)cc4)cc3c2=O)cc1 (stereo not shown)	64.3
OC(COc1ccccc1-c1ccncc1)CN1CCOCC1 (stereo not shown)	129
CN1CCC2(CC1)CCN(Cc1ccc(OCC(O)CN3CCCCC3)cc1)C2 (stereo not shown)	63
Cc1cccc(CNCc2ccccc2OCC(O)CN2CCSCC2)c1 (stereo not shown)	38
Clc1ccc2c(c1)N=C(N1CCNCC1)c1ccccc1N2	73.8
CCC(CC)C(=O)NC[C@H]1O[C@@H](CC(=O)N2CCN(c3ccccc3OC)CC2)[C@H](O)[C@@H]1O	36.6
Cn1c(=O)c2c(ncn2CCCNCC(O)c2cc(O)cc(O)c2)n(C)c1=O (stereo not shown)	65.5

Series 4 — method: competition with immobilised ligand; tested at: 0.1 µM
SMILES: CCOC(=O)c1cc2cc(-c3cc(C(=O)NCc4ccc(C(=O)O)cc4)nn3C)ccc2[nH]1
target	test	remaining binding [%]
Casein kinase I isoform gamma-2 (CSNK1G2, Homo sapiens, UniProt P78368)	cell-free assay	79
Vascular endothelial growth factor receptor 2 (KDR, Homo sapiens, UniProt P35968)	cell-free assay	81
Wee1-like protein kinase 2 (WEE2, Homo sapiens, UniProt P0C1S8)	cell-free assay	100
Mitogen-activated protein kinase 10 (MAPK10, Homo sapiens, UniProt P53779)	cell-free assay	100
Receptor-interacting serine/threonine-protein kinase 2 (RIPK2, Homo sapiens, UniProt O43353)	cell-free assay	100
Mitogen-activated protein kinase kinase kinase 1 (MAP3K1, Homo sapiens, UniProt Q13233)	cell-free assay	90
Activin receptor type-2B (ACVR2B, Homo sapiens, UniProt Q13705)	cell-free assay	91
Serine/threonine-protein kinase LATS1 (LATS1, Homo sapiens, UniProt O95835)	cell-free assay	97
Receptor-type tyrosine-protein kinase FLT3 (FLT3, Homo sapiens, UniProt P36888, D835H)	cell-free assay	100
Mast/stem cell growth factor receptor Kit (KIT, Homo sapiens, UniProt P10721, V559D)	cell-free assay	100
Ribosomal protein S6 kinase alpha-6, N-terminal kinase domain (RPS6KA6, Homo sapiens, UniProt Q9UK32)	cell-free assay	95
Serine/threonine-protein kinase MRCK alpha (CDC42BPA, Homo sapiens, UniProt Q5VT25)	cell-free assay	100
Leucine-rich repeat serine/threonine-protein kinase 2 (LRRK2, Homo sapiens, UniProt Q5S007, G2019S)	cell-free assay	83
Mitogen-activated protein kinase kinase kinase 14 (MAP3K14, Homo sapiens, UniProt Q99558)	cell-free assay	58
Mitogen-activated protein kinase 15 (MAPK15, Homo sapiens, UniProt Q8TD08)	cell-free assay	100
Transient receptor potential cation channel subfamily M member 6 (TRPM6, Homo sapiens, UniProt Q9BX84)	cell-free assay	95
Receptor-interacting serine/threonine-protein kinase 4 (RIPK4, Homo sapiens, UniProt P57078)	cell-free assay	82
Receptor-type tyrosine-protein kinase FLT3 (FLT3, Homo sapiens, UniProt P36888, R834Q)	cell-free assay	78
Cyclin-dependent kinase 11A (CDK11A, Homo sapiens, UniProt Q9UQ88)	binding	100

Excerpt of the above (series 2):
target	test	scale	remaining activity [%]
Rhodopsin kinase GRK7 (GRK7, Homo sapiens, UniProt Q8WTQ7)		baseline: untreated control	94.9
Protein-tyrosine kinase 2-beta (PTK2B, Homo sapiens, UniProt Q14289)		baseline: untreated control	92.7
Dual specificity mitogen-activated protein kinase kinase 7 (MAP2K7, Homo sapiens, UniProt O14733)		baseline: untreated control	109
cAMP-dependent protein kinase catalytic subunit gamma (PRKACG, Homo sapiens, UniProt P22612)		baseline: untreated control	102
